{"data": "Measurements pooled from the literature", "note": "Lines come from different studies, so protocols differ."}
{"SMILES": "COC1C=COC2(C)Oc3c(C)c(O)c4c(c3C2=O)C2=NC3(CCN(CC(C)C)CC3)NC2=C(NC(=O)C(C)=CC=CC(C)C(O)C(C)C(O)C(C)C(OC(=O)Nc2cccnn2)C1C)C4=O (stereo not shown)", "test system": "CD-1 mouse female, plasma", "endpoint": "elimination half-life", "result": "2.5 h"}
{"SMILES": "COCCOCCOCCOCCOCCOCCOCCNC(=O)CCC1(CCC(=O)NCCOCCOCCOCCOCCOCCOCCOC)c2ccccc2-c2ccc(-c3sc(-c4c5c(c(-c6sc(-c7ccc8c(c7)C(CCC(=O)NCCOCCOCCOCCOCCOCCOCCOC)(CCC(=O)NCCOCCOCCOCCOCCOCCOCCOC)c7ccccc7-8)c7c6OCCO7)c6nsnc46)N=S=N5)c4c3OCCO4)cc21", "test": "NIR-II fluorescence of blood", "test system": "KM mouse, female, whole blood", "setting": "intravenous, 15 mg/kg, liver elimination, negligible renal excretion", "endpoint": "elimination rate constant", "result": "~0.74 h⁻¹"}
{"SMILES": "CC1(C)C(/C=C/C2=C(Oc3ccc(CCC(=O)NCCC(O)(P(=O)([O-])O)P(=O)(O)O)cc3)C(=C/C=C3/N(CCC[N+](C)(C)C)c4ccc(S(=O)(=O)[O-])cc4C3(C)C)/CCC2)=[N+](CCC[N+](C)(C)C)c2ccc(S(=O)(=O)[O-])cc21 (stereo not shown)", "test system": "mouse, male, whole blood", "setting": "intravenous, 10 nmol, over 4 h", "endpoint": "elimination half-life", "result": "0.667 h"}
{"SMILES": "COC1C=COC2(C)Oc3c(C)c(O)c4c(c3C2=O)C2=NC3(CCN(CC(C)C)CC3)NC2=C(NC(=O)C(C)=CC=CC(C)C(O)C(C)C(O)C(C)C(OC(=O)Nc2cnccn2)C1C)C4=O (stereo not shown)", "test system": "CD-1 mouse female, plasma", "endpoint": "elimination half-life", "result": "4 h"}
{"SMILES": "Cc1ccc(C(C)C)cc1.O=C(N=P(c1ccccc1)(c1ccccc1)c1ccccc1)c1ccccn1.[Cl-].[Cl-].[Ru+2]", "test": "item: ruthenium", "test system": "NOD scid mouse, plasma", "setting": "intraperitoneal, 5 mg/kg", "endpoint": "elimination rate constant", "result": "0.055 h⁻¹"}
{"SMILES": "CC(C)N(P(c1ccccc1)c1ccccc1)P(c1ccccc1)c1ccccc1.Cc1ccc(C(C)C)cc1.F[B-](F)(F)F.[Cl][Ru+]", "test": "ICP-MS, item: ruthenium", "test system": "BALB/c nude mouse, serum", "setting": "intraperitoneal, 5 mg/kg", "endpoint": "elimination rate constant", "result": "0.055 h⁻¹"}
{"SMILES": "N=C(N)NCCC[C@@H]1NC(=O)[C@H](Cc2c[nH]c3ccccc23)NC(=O)[C@@H](CC2CCCCC2)NC(=O)[C@@H]2CCCN2C(=O)[C@@H](NC(=O)CCc2ccccc2)CCCNC1=O", "test": "two-compartment model", "test system": "C57BL/6J mouse, plasma", "setting": "1 mg/kg single dose", "endpoint": "elimination half-life", "result": "~0.333 h"}
{"SMILES": "O=C(OCc1cccc(O)c1O)c1ccc(O)c(CO)c1", "test system": "mouse CD1, male, plasma", "setting": "intravenous bolus, 10 mg/kg, 0 to 30 min", "endpoint": "elimination rate constant", "result": "16.5 h⁻¹"}
{"SMILES": "Cc1cc(O)cc(O)c1C(=O)c1c2c3c(c(O)cc(C)c3oc1=O)C(=O)c1c(O)cc(O)cc1-2", "test system": "KM mouse, male, plasma", "setting": "intraperitoneal, 15 mg/kg", "endpoint": "elimination rate constant", "result": "0.96 h⁻¹"}
{"SMILES": "O=C(CCCCC[N+]#[C][99Tc-5]([C]#[N+]CCCCCC(=O)N[C@H]1C(O)O[C@H](CO)[C@@H](O)[C@@H]1O)([C]#[N+]CCCCCC(=O)N[C@H]1C(O)O[C@H](CO)[C@@H](O)[C@@H]1O)([C]#[N+]CCCCCC(=O)N[C@H]1C(O)O[C@H](CO)[C@@H](O)[C@@H]1O)([C]#[N+]CCCCCC(=O)N[C@H]1C(O)O[C@H](CO)[C@@H](O)[C@@H]1O)[C]#[N+]CCCCCC(=O)N[C@H]1C(O)O[C@H](CO)[C@@H](O)[C@@H]1O)N[C@H]1C(O)O[C@H](CO)[C@@H](O)[C@@H]1O (stereo partly shown)", "test system": "CD-1 mouse, healthy, blood", "endpoint": "elimination half-life", "result": "0.353 h"}
{"SMILES": "O=C([O-])CN1CCN(CC(=O)[O-])CCN(CC(=O)NC[C@H]2CC[C@H](C(=O)N[C@H](Cc3cnc4ccccc4c3)C(=O)NCCCC[C@H](NC(=O)N[C@@H](CCC(=O)O)C(=O)O)C(=O)O)CC2)CCN(CC(=O)[O-])CC1.[64Cu+2]", "test system": "ICR mouse, male, blood", "setting": "intravenous, 0.74 MBq", "endpoint": "elimination half-life", "result": "1.38 h"}
{"SMILES": "CC1(C)C(=CC=C2C[N+](C)(C)CC(C=CC3=[N+](CCCCCC(=O)O)c4ccccc4C3(C)C)=C2Cl)N(CCCCCC(=O)O)c2ccccc21", "test": "fluorescence", "test system": "CD-1 mouse, healthy, plasma", "setting": "intravenous, 25 nmol", "endpoint": "elimination half-life", "result": "1.67 h"}
{"SMILES": "CC1(C)C(/C=C/C2=C(Oc3ccc(CCC(=O)NCCC(O)(P(=O)([O-])[O-])P(=O)([O-])O)cc3)C(=C/C=C3/N(CCC[N+](C)(C)C)c4ccccc4C3(C)C)/CCC2)=[N+](CCC[N+](C)(C)C)c2ccccc21 (stereo not shown)", "test system": "mouse, male, whole blood", "setting": "intravenous, 10 nmol, over 4 h", "endpoint": "elimination half-life", "result": "1.13 h"}
{"note": "For quick reference, copied from above:"}
{"SMILES": "Cc1cc(O)cc(O)c1C(=O)c1c2c3c(c(O)cc(C)c3oc1=O)C(=O)c1c(O)cc(O)cc1-2", "test system": "KM mouse, male, plasma", "setting": "intraperitoneal, 15 mg/kg", "endpoint": "elimination rate constant", "result": "0.96 h⁻¹"}
